# Results of several laboratories.
# Lines come from different studies, so protocols differ. ± gives the spread as reported.
SMILES,test,test system,setting,tissue uptake
CCCC[C@H](NC(=O)CNC(=O)CNC(=O)CN1CCN(CC(=O)O)CCN(CC(=O)O)CC1)C(=O)N[C@H]1CC(=O)NCCCC[C@@H](C(N)=O)NC(=O)[C@H](Cc2c[nH]c3ccccc23)NC(=O)[C@H](CCCNC(=N)N)NC(=O)[C@@H](Cc2ccccc2)NC(=O)[C@H](Cc2c[nH]cn2)NC1=O [copper-64 labelled],,"female C57 mouse, B16/F1 melanoma, liver","intravenous, 0.037 MBq, 0.5 h",1.1 ± 0.18 %ID/g
C[C@H](CN(C)Cc1ccccc1)NC(=O)c1ccc(-c2noc(C(F)(F)[18F])n2)cc1,PET imaging,"female Sprague-Dawley rats, heart","intravenous, 1 min",3.71 ± 2.29 SUV
OCc1cn(Cc2ccc(-c3noc(-c4ccc(OCC[18F])c(C(F)(F)F)c4)n3)cc2)nn1,,"female Lewis rat, kidney","intravenous, 5 min",3.43 ± 0.31 %ID/g
CCCC[C@@H]1NC(=O)[C@@H](NC(=O)[C@H](CCC(=O)O)NC(=O)CNC(=O)CN2CCN(CC(=O)O)CCN(CC(=O)O)CCN(CC(=O)O)CC2)CCCCNC(=O)C[C@@H](C(N)=O)NC(=O)[C@H](C(C)C)NC(=O)[C@@H]2CCCN2C(=O)[C@H](CCCNC(=N)N)NC(=O)CNC(=O)[C@H](Cc2c[nH]c3ccccc23)NC(=O)[C@H](CCCNC(=N)N)NC(=O)[C@@H](Cc2ccccc2)NC(=O)[C@H](Cc2c[nH]cn2)NC(=O)[C@H](CCC(=O)O)NC1=O [gallium-67 labelled],,"C57 mice, B16/F10 lung metastases, pancreas","intravenous, 0.037 MBq/mouse, 4 h",0.18 ± 0.09 %ID/g
CCCC[C@H](NC(=O)CNC(=O)CNC(=O)CN1CCN(CC(=O)O)CCN(CC(=O)O)CCN(CC(=O)O)CC1)C(=O)N[C@H]1CC(=O)NCCCC[C@@H](C(N)=O)NC(=O)[C@H](Cc2c[nH]c3ccccc23)NC(=O)[C@H](CCCNC(=N)N)NC(=O)[C@@H](Cc2ccccc2)NC(=O)[C@H](Cc2c[nH]cn2)NC1=O [lead-203 labelled],,"C57 mouse, brain","intravenous, 0.056 MBq, 2 h",0.05 ± 0.01 %ID/g
O=C([O-])c1cccc(CN(CCN(Cc2cn(Cc3ccccc3)nn2)Cc2cccc(C(=O)[O-])n2)Cc2cn(Cc3ccccc3)nn2)n1.[64Cu+2],,"nude athymic mice, healthy, femur","intravenous, 24 h, 64Cu label",1.88 %ID/g
CCCC[C@H](NC(=O)CNC(=O)CNC(=O)CN1CCN(CC(=O)O)CCN(CC(=O)O)CCN(CC(=O)O)CC1)C(=O)N[C@H]1CC(=O)NCCCC[C@@H](C(N)=O)NC(=O)[C@H](Cc2c[nH]c3ccccc23)NC(=O)[C@H](CCCNC(=N)N)NC(=O)[C@@H](Cc2ccccc2)NC(=O)[C@H](Cc2c[nH]cn2)NC1=O [copper-64 labelled],,"female C57 mouse, B16/F1 melanoma, muscle","intravenous, 0.037 MBq, 2 h",0.42 ± 0.24 %ID/g
CC(C)[C@H](NC(=O)[C@@H]1CCCN1C(=O)[C@H](CCCNC(=N)N)NC(=O)[C@H](CS)NC(=O)[C@H](Cc1c[nH]c2ccccc12)NC(=O)[C@H](CCCNC(=N)N)NC(=O)[C@@H](Cc1ccccc1)NC(=O)[C@H](Cc1c[nH]cn1)NC(=O)[C@H](CCC(=O)O)NC(=O)[C@H](CS)NC(=O)[C@H](CS)NC(=O)CNC(=O)[C@@H]1CC(=O)N[C@@H](CCCNC(=N)N)C(=O)NCC(=O)N[C@@H](CC(=O)O)C(=O)N[C@H](Cc2ccc(O)cc2)C(=O)N1)C(N)=O [technetium-99m labelled],,"C57 mouse, female, B16/F1 melanoma, bone","intravenous, 0.037 MBq, 24 h",0.47 ± 0.12 %ID/g
O=C(O)C1CN(Cc2ccc(-c3noc(-c4ccc(OCC[18F])c(C(F)(F)F)c4)n3)cc2)C1,,"male Sprague-Dawley rat, lung","intravenous, 5 min",0.753 ± 0.097 %ID/g
CN(C)c1ccc(-c2nc3ccc(OCCCCCN4CCN5CCN(CC4)CC(=O)[O][Al]([18F])[O]C(=O)C5)cc3s2)cc1,,"ICR mouse, blood","intravenous, 2 min",7.81 ± 0.85 %ID/g
O=C([O-])CN1CCN(CC(=O)[O-])CCN(CC(=O)NCCc2ccc3c(c2)C2C=CCC2C(c2cc4c(cc2Br)OCO4)N3)CCN(CC(=O)[O-])CC1.[111In+3] (stereo not drawn),,"mouse, Hec50 endometrial tumour, kidneys",2 h post injection,1.62 ± 0.53 %ID/g
CCCC[C@H](NC(=O)CNC(=O)CNC(=O)CN1CCN(CC(=O)O)CCN(CC(=O)O)CCN(CC(=O)O)CC1)C(=O)N[C@H]1CC(=O)NCCCC[C@@H](C(N)=O)NC(=O)[C@H](Cc2c[nH]c3ccccc23)NC(=O)[C@H](CCCNC(=N)N)NC(=O)[C@@H](Cc2ccccc2)NC(=O)[C@H](Cc2c[nH]cn2)NC1=O [gallium-67 labelled],,"female C57 mice, B16/F1 melanoma, spleen","intravenous, 0.037 MBq, 2 h",0.44 ± 0.09 %ID/g
O=C([O-])CN1CCN(CC(=O)[O-])CCN(CC(=O)[O-])CCN(CC(=O)[O-])CC1.[64Cu+2],,"healthy athymic nude mice, skin","intravenous, 4 h",0.34 %ID/g
CC(C)[C@H](NC(=O)[C@@H]1CCCN1C(=O)[C@H](CCCNC(=N)N)NC(=O)[C@H](CS)NC(=O)[C@H](Cc1c[nH]c2ccccc12)NC(=O)[C@H](CCCNC(=N)N)NC(=O)[C@@H](Cc1ccccc1)NC(=O)[C@H](Cc1c[nH]cn1)NC(=O)[C@H](CCC(=O)O)NC(=O)[C@H](CS)NC(=O)[C@H](CS)NC(=O)[C@@H]1CC(=O)N[C@@H](CCCNC(=N)N)C(=O)NCC(=O)N[C@@H](CC(=O)O)C(=O)N[C@H](Cc2ccc(O)cc2)C(=O)N1)C(N)=O [technetium-99m labelled],,"C57 mouse, female, B16/F1 melanoma, spleen","intravenous, 0.037 MBq, 2 h",1.06 ± 0.39 %ID/g
NC12CNCCNCC(NCc3ccc(CNC(=O)CCCC(=O)NCc4ccc(-c5nncnn5)cc4)cc3)(CNCCNC1)CNCCNC2.[64Cu+2],,"athymic nude mice SW1222 xenograft, liver","4 h post injection, 24 h accumulation interval, together with: huA33-TCO pretargeting",1.45 ± 0.21 %ID/g

# For quick reference, copied from above:
SMILES,test,test system,setting,tissue uptake
O=C([O-])CN1CCN(CC(=O)[O-])CCN(CC(=O)[O-])CCN(CC(=O)[O-])CC1.[64Cu+2],,"healthy athymic nude mice, skin","intravenous, 4 h",0.34 %ID/g
